Values quoted from earlier work as cited in several papers.
Numbered parts are unrelated; values within a part may stem from several laboratories. Numbers after ± are the reported error.
Chain of UniProt Q61618 (whole entry, looked up): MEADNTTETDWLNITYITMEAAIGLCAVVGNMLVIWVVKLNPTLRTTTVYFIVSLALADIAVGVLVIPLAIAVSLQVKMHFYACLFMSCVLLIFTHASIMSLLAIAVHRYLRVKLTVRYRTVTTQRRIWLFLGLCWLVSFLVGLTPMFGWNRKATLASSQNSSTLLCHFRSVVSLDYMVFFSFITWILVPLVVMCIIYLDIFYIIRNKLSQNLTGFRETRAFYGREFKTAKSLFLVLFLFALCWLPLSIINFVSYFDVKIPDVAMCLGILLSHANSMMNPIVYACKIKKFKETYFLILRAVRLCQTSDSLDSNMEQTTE
Chain of UniProt Q9UBS5 (whole entry, looked up): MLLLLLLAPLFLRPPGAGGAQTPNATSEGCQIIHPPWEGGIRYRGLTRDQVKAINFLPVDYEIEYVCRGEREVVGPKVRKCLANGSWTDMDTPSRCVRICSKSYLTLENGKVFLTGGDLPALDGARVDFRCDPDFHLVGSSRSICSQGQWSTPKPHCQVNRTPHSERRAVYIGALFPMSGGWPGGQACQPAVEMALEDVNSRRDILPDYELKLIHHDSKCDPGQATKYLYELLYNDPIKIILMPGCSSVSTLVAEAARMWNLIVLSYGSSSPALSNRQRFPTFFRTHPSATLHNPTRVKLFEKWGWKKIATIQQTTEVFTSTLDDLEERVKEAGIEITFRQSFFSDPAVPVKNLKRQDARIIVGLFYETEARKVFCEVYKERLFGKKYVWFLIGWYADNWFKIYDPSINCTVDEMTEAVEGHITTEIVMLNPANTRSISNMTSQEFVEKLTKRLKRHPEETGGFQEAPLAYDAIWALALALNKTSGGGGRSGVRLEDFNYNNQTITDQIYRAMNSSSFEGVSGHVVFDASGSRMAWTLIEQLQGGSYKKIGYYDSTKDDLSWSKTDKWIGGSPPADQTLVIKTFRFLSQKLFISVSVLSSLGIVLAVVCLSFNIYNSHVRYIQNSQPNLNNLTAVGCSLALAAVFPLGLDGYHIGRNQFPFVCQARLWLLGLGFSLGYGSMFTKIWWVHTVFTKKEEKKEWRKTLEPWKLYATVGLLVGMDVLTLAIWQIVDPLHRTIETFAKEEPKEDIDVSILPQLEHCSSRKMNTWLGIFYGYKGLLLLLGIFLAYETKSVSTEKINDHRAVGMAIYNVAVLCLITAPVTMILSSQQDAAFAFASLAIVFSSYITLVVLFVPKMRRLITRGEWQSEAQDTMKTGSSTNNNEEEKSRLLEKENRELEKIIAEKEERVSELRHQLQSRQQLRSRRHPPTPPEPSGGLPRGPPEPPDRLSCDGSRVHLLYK
Chain of UniProt P43140 (whole entry, looked up): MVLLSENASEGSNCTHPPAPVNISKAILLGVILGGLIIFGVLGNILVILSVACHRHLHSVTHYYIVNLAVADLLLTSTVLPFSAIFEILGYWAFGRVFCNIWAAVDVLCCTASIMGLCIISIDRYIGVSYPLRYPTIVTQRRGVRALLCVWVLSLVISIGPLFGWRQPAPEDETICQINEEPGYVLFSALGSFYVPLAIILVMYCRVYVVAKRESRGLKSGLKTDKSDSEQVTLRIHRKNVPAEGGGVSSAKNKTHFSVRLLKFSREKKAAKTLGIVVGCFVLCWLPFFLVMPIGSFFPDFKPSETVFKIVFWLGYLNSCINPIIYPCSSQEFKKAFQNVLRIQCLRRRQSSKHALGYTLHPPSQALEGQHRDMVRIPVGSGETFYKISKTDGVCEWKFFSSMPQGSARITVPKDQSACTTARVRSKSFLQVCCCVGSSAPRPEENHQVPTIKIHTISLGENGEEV

Set 1
Target: HLA class I histocompatibility antigen, A alpha chain, allele A*80:01 (Homo sapiens, UniProt P04439)
Read-out: peptide-MHC binding
Form: peptide
Molecule	IC50
ILLARLFLY	3.63 nM
QLFPELECF	> 20000 nM
VFSDGRVAC	> 20000 nM
AFFAERLYY	19.7 nM
PIPVGDIYK	20000 nM
APRRRDEEL	> 20000 nM
KVVPRRKAK	20000 nM
TVFCFFNYI	> 20000 nM
PLFPGITRV	> 20000 nM
IRMWNQAAL	> 20000 nM
EYAPFARLL	> 20000 nM
ISLQEVFTM	> 20000 nM
RRRPVTRPL	> 20000 nM
LLFRMILNY	26 nM

Further values, each from its own experiment
Tubulin alpha-1B chain/TUBB2B: Tubulin alpha-1B chain/TUBB2B (Bos taurus, UniProt P81947+Q6B856)
Chain of UniProt Q6B856 (whole entry, looked up): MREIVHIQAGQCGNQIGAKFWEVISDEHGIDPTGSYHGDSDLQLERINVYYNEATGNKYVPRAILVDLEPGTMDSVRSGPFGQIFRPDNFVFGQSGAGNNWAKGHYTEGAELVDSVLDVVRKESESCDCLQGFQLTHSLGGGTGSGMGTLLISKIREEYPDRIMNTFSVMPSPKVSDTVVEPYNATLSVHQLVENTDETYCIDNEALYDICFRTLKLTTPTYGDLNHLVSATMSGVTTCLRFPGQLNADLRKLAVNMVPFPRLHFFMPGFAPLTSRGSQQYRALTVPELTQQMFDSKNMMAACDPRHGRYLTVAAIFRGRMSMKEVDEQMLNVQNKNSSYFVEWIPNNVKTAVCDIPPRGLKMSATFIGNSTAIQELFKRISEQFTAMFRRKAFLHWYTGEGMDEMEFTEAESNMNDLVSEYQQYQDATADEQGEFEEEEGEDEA
Chain of UniProt P81947 (whole entry, looked up): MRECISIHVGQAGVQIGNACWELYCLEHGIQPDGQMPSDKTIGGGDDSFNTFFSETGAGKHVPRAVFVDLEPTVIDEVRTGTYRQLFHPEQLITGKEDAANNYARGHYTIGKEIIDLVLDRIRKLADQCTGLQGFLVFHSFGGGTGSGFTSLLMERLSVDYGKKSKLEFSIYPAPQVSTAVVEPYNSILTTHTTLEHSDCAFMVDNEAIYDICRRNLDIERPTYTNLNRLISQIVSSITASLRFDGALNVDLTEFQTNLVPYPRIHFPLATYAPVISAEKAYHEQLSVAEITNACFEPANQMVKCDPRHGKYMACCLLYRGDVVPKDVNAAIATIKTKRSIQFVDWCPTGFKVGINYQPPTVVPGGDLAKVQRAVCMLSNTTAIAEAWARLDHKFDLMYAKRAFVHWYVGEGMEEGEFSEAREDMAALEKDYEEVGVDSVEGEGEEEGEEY
SMILES	tested on	test	system	conditions	how to read	quantity	value
Oc1ccc(-c2ccc(Cl)cc2)cc1			rat liver	1 µM		sulfonation rate	8 pmol/min/mg protein
COc1ccc2c(c1N)CCCC=C2c1cc(OC)c(OC)c(OC)c1	Tubulin alpha-1B chain/TUBB2B	tubulin polymerization, inhibitor				IC50	1300 ± 110 nM
Oc1ccc(-c2c(Cl)c(Cl)cc(Cl)c2Cl)cc1Cl			rat liver	1 µM		sulfonation rate	11 pmol/min/mg protein
CC(O)CN1CCN(CC(=O)[O-])CCN(CC(=O)[O-])CCN(CC(=O)[O-])CC1.[Gd+3] (stereo not shown)			human plasma	310 K, 0.47 T		relaxivity r1	4.9 mM⁻¹ s⁻¹
CCN(CC)C(=O)c1ccc([C@H](c2ccccc2)N2C[C@@H](C)N(Cc3cccc(F)c3)C[C@@H]2C)cc1	rat kappa opioid receptor	binding				Ki	2300 nM
OCCOCCN1CCN(C(c2ccccc2)c2ccc(Cl)cc2)CC1 (stereo not shown)	hepatitis C virus	viral replication, RT-qPCR	Huh-7.5.1			EC50	50.3 nM
C[C@H](NC[C@H](O)CP(=O)(O)CC1CCCCC1)c1ccc(Cl)c(Cl)c1	GABBR1 (Homo sapiens, UniProt Q9UBS5)					Hill coefficient	1
COc1cc(CCNc2nc(C#Cc3ccccc3)nc3c2ncn3[C@H]2[C@H](O)[C@H](O)[C@@H]3C[C@@H]32)ccc1O	Adenosine receptor A3 (Mus musculus, UniProt Q61618)				relative to: unsubstituted N6 analogue	affinity enhancement	27 fold
COc1ccc2c(c1O)CCCC=C2c1cc(OC)c(OC)c(OC)c1	Tubulin alpha-1B chain/TUBB2B	tubulin polymerization, inhibitor				IC50	850 ± 20 nM
O=C(NC[C@H]1CN(c2ccc(N3CCOCC3=O)cc2)C(=O)O1)c1ccc(Cl)s1	prothrombinase (factor Xa-factor Va complex)	inhibitor		closed non-flow system		IC50	2.1 nM
COc1cc2nc(N3CCN(C(=O)c4ccco4)CC3)nc(N)c2cc1OC	Adra1a (Rattus norvegicus, UniProt P43140)					Hill coefficient	0.9
CN1CCN(C(c2ccccc2)c2ccc(Cl)cc2)CC1 (stereo not shown)	hepatitis C virus	viral replication, RT-qPCR	Huh-7.5.1			EC50	33.1 nM
CC1(C)CCC(c2ccc(Cl)cc2)=C(CN2CCN(c3ccc(C(=O)NS(=O)(=O)c4ccc(N[C@H](CCN5CCOCC5)CSc5ccccc5)c(S(=O)(=O)C(F)(F)F)c4)cc3)CC2)C1			relapsed SCLC patients	once daily		maximum tolerated dose	325 mg
CC(=O)N(C)[C@H]1CCN(C(=O)c2cnc3c(c2)C[C@](C)(c2ccc(F)cc2)N3)C1			Wistar Han rats, female	50 mg/kg/day, NOAEL dose		Cmax	50.5 µM

A few entries again (set 1):
Molecule	IC50
LLFRMILNY	26 nM
AFFAERLYY	19.7 nM
ISLQEVFTM	> 20000 nM
